Measured values collected from several papers.
± gives the spread as reported.

SMILES | cell line | test | setting | how to read | quantity | result
[Cl][Au].[Se]=c1n(C2CCCCC2)ccn1C1CCCCC1 | LoVo-OXP colon cancer cells | MTT |  | baseline: LoVo-OXP over LoVo IC50 | resistance factor | 0.8
COC(=O)C1=CO[C@@H](O)[C@@H]2C(Cn3cc(CON4C(=O)c5ccccc5C4=O)nn3)=CC[C@H]12 | SK-N-SH | neuroprotection, MTT | 0.3 µM, 24 h, with: 250 µM H2O2 |  | viability | 73.6 ± 1.6%
COC1CC(OC2CCC3(C)C(CCC45OC46CCC(C(C)=O)C6(C)C(OC(C)=O)C(OC(=O)c4ccccc4)C35)C2)OC(C)C1OC1OC(C)C(O)C(OC)C1O (centres unmarked) | MDA435/LCC6-MDR1 | cell growth, MDR reversal, SRB | 10 µM, with: doxorubicin | baseline: doxorubicin alone over combination | fold reversal of IC50 | 14
CSCC[C@H](NC(=O)[C@H](CC(C)C)NC(=O)[C@H](Cc1c[nH]cn1)NC(=O)CNC(=O)[C@@H](NC(=O)[C@H](C)NC(=O)[C@H](Cc1c[nH]c2ccccc12)NC(=O)[C@H](CCC(N)=O)NC(=O)CCCCCCCNC(=O)CCC(=O)Nc1ccc(CNC23CNCCNCC(N)(CNCCNC2)CNCCNC3)cc1)C(C)C)C(N)=O [copper-64 labelled] | PC-3 |  | 0 to 60 min |  | initial internalization rate | 2.6 fmol/mg/min
COC(=O)C1=CO[C@@H](O)[C@@H]2C(Cn3cc(C4(O)CCCC4)nn3)=CC[C@H]12 | SK-N-SH | neuroprotection, MTT | 0.3 µM, 24 h, with: 250 µM H2O2 |  | viability | 78.2 ± 0.9%
O=c1c(Nc2ccc(Br)cc2)c(NC2CCN(Cc3ccccc3)CC2)c1=O | SH-SY5Y | neuroprotection, MTT | 12.5 µM, 24 h pretreatment, with: H2O2 650 µM for 4 h |  | cell survival | 50.5%
O=C1C=CC(=O)c2c(O)ccc(O)c21 | MOLT-3 | cytotoxicity, XTT |  | baseline: IC50 MRC5 over IC50 MOLT-3 | selectivity ratio | 43.6
Cc1ccnc(Nc2c3c(nc4ccccc24)CCCC3)c1 | SH-SY5Y | MTT | 50 µM, 1 h pretreatment, 10% FBS, with: H2O2 |  | viability | 61.8 ± 1.55%
COC(=O)C1=CO[C@@H](OC(C)=O)[C@@H]2C(Cn3cc(CON4C(=O)c5ccccc5C4=O)nn3)=CC[C@H]12 | SK-N-SH | neuroprotection, MTT | 0.075 µM, 24 h, with: 250 µM H2O2 |  | viability | 78.5 ± 0.4%
F[P-](F)(F)(F)(F)F.OCP(CO)CO.OCP(CO)CO.OCP(CO)CO.OCP(CO)CO.[Cu+] | non-tumour over colon cancer cells |  |  | baseline: cisplatin | selectivity index ratio | 35 fold
COc1nc(CC=C(C)CC=CC(C)=CC(C)C(OC2OC(CO)C(O)C(O)C2O)C(C)=CCO)c(C)c(O)c1OC (centres unmarked) | HK-2 | JC-1 red/green ratio | concentration not given, with: H2O2 |  | mitochondrial membrane potential | increased
COC(=O)C1=CO[C@@H](OC(C)=O)[C@@H]2C(Cn3cc(CCO)nn3)=CC[C@H]12 | SK-N-SH | neuroprotection, MTT | 0.075 µM, 24 h, with: 250 µM H2O2 |  | viability | 83.5 ± 2.5%
COc1ccnc(Nc2c3c(nc4cc(C)ccc24)CCCC3)c1 | SH-SY5Y | MTT | 50 µM, 1 h pretreatment, 10% FBS, with: H2O2 |  | viability | 42.5 ± 2.94%
CCOC(=O)c1ccc(NC(=S)Nc2ccc3c(c2)C(C)(C)CC(C)(C)S3)cc1 | HK-2 | MTS | range over 1 to 12.5 µM, 48 h |  | maximum growth inhibition | 35.3 ± 2.09%
CCCc1cc(OC)c(OC)c(OC)c1OC | SK-OV-3 | cell growth or viability, MTT | 72 h |  | GI50 | > 250 µM
CCCCCCCCOCc1cn(CC2=CC[C@@H]3C(C(=O)OC)=CO[C@@H](OC(C)=O)[C@H]23)nn1 | SK-N-SH | neuroprotection, MTT | 0.3 µM, 24 h, with: 250 µM H2O2 |  | viability | 68.1 ± 0.1%
CC/C=C\C/C=C\C/C=C\C/C=C\C/C=C\C/C=C\CCC(=O)Nc1ccn(C2OC(CO)C(O)C2(F)F)c(=O)n1 (centres unmarked) | SNB-19 | NCI60 screen |  |  | CC50 | 61.9 µM
C=CCCCCCCCCCOCc1cn(CC2=CC[C@@H]3C(C(=O)OC)=CO[C@@H](OC(C)=O)[C@H]23)nn1 | SK-N-SH | neuroprotection, MTT | 0.15 µM, 24 h, with: 250 µM H2O2 |  | viability | 63.2 ± 0.3%
CC[C@H](C)[C@H]1OC(=O)[C@H](C(C)C)NC(=O)[C@H](C)OC(=O)[C@@H](C(C)C)NC(=O)[C@@H]([C@@H](C)CC)OC(=O)[C@H](C(C)C)NC(=O)[C@H](C)OC(=O)[C@@H](C(C)C)NC(=O)[C@@H](CC(C)C)OC(=O)[C@H](C(C)C)NC(=O)[C@H](C)OC(=O)[C@@H](C(C)C)NC1=O | NCI-460 | cell growth or viability |  |  | GI50 | < 1 ng/mL

SMILES | cell line | test | setting | how to read | quantity | result
CC(C)CC(O)(CC(C)C)c1cn(C(=O)N2CCCC2)nn1 | mouse T-cells | N-terminal labeled proteins, N-terminal enrichment proteomics, refers to: FDX1 | 1 nM, 6 h | baseline: DMSO | SILAC ratio | 2.6 ± 0.15
CCCCCCCCCCCCCCCC[P+](c1ccccc1)(c1ccccc1)c1ccccc1 | SK-OV-3 | cell growth or viability, MTT | 72 h |  | GI50 | 13.8 µM
CC[C@H]1CN2CCc3cc(OC)c(OC)cc3[C@@H]2C[C@@H]1C[C@@H]1c2cc(OC)c(OC)cc2CCN1C(=O)OCc1ccc(NC(=O)[C@@H]2CCCN2C(=O)[C@H](C)NC(=O)[C@H](CCC(N)=O)NC(=O)[C@H](CC(C)C)NC(=O)[C@H](CCCCN)NC(=O)[C@H](CO)NC(=O)[C@H](CO)NC(=O)[C@H](Cc2c[nH]cn2)NC(C)=O)cc1 | LNCaP | cell viability, MTT |  | baseline: compound over emetine | IC50 ratio | ~24 fold
COc1cc(/C=C(\C#N)C(=O)Nc2nnc(C(F)(F)F)s2)ccc1OC(=O)N1CCN(C(=O)CCCC(=O)NCCCC[C@@H]2NC(=O)[C@@H](Cc3ccc(O)cc3)NC(=O)[C@H](CC(=O)O)NC(=O)CNC(=O)[C@H](CCCNC(=N)N)NC2=O)CC1 | U87 | cell growth, MTT | 48 h |  | GI50 | 63 ± 0.9 µM
CC(C)[C@@H](CS(=O)(=O)C(C)C)N1C(=O)[C@@](C)(CC(=O)NCCCNC(=O)c2ccc([18F])nc2)C[C@H](c2cccc(Cl)c2)[C@H]1c1ccc(Cl)cc1 | SJSA-1 |  |  |  | uptake | < 2%
COC(=O)C1=CO[C@@H](OC(C)=O)[C@@H]2C(Cn3cc(CCBr)nn3)=CC[C@H]12 | SK-N-SH | neuroprotection, MTT | 0.3 µM, 24 h, with: 250 µM H2O2 |  | viability | 68.9 ± 0.5%
Cc1cc(C)c(-n2ccn(-c3c(C)cc(C)cc3C)c2=[Se])c(C)c1.[Cl][Au] | A-431 | cell growth or viability, MTT | 72 h |  | IC50 | 2800 nM
CC(C)[C@H](NC(=S)Nc1ccc2c(c1)C(=O)OC21c2ccc(O)cc2Oc2cc(O)ccc21)C(=O)N[C@@H](CCCNC(=N)N)C(=O)N[C@@H](CCCNC(=N)N)C(=O)N[C@@H](C)C(=O)N[C@@H](CC(=O)O)C(=O)N[C@@H](CC(N)=O)C(=O)N[C@@H](CCCNC(=N)N)C(=O)N1CCC[C@H]1C(=O)NCC(=O)O | vector-transfected HeLa | fluorescence | 5 µg/mL, 15 min, 37 °C |  | binding | no binding
CSCC[C@H](NC(=O)[C@H](CC(C)C)NC(=O)[C@H](Cc1c[nH]cn1)NC(=O)CNC(=O)[C@@H](NC(=O)[C@H](C)NC(=O)[C@H](Cc1c[nH]c2ccccc12)NC(=O)[C@H](CCC(N)=O)NC(=O)CCCCCNC(=O)CCN(CCNC(=O)c1ccc(F)cc1)CCC(=O)NCCCC[C@@H]1NC(=O)[C@@H](Cc2ccc(O)cc2)NC(=O)[C@H](CC(=O)O)NC(=O)CNC(=O)[C@H](CCCNC(=N)N)NC1=O)C(C)C)C(N)=O [fluorine-18 labelled] | PC-3 |  | 120 min, 37 °C | baseline: added radioactivity | cellular uptake | 4.72 ± 0.36%
NC(=S)N/N=C/c1ccc(OCc2ccccc2)cc1 | IMR-32 | cell growth or viability, MTT | 24 h |  | IC50 | 12 µg/mL
CC(C)(C)c1ccc(Nc2c3c(nc4ccccc24)CCCC3)cc1 | SH-SY5Y | MTT | 50 µM, 1 h pretreatment, 10% FBS, with: H2O2 |  | viability | 63.14 ± 0.44%
CSCC[C@H](NC(=O)[C@H](CC(C)C)NC(=O)[C@H](Cc1c[nH]cn1)NC(=O)CNC(=O)[C@@H](NC(=O)[C@H](C)NC(=O)[C@H](Cc1c[nH]c2ccccc12)NC(=O)[C@H](CCC(N)=O)NC(=O)CCCCCCCNC(=O)[C@@H](CO)NC(=O)[C@@H](CO)NC(=O)[C@@H](CO)NC(=O)CN1CCN(CC(=O)O)CCN(CC(=O)O)CCN(CC(=O)O)CC1)C(C)C)C(N)=O [indium-111 labelled] | PC-3 |  | 8 h | baseline: hypoxic over normoxic | hypoxia enhancement factor | 1.17 ± 0.12
COC(=O)C1=CO[C@@H](OC(C)=O)[C@@H]2C(Cn3cc(CCCCN4C(=O)c5ccccc5C4=O)nn3)=CC[C@H]12 | SK-N-SH | neuroprotection, MTT | 0.6 µM, 24 h, with: 250 µM H2O2 |  | viability | 65.9 ± 1.1%
CCCCCCCCCCCCCC(=O)NCC(=O)N[C@@H](CCCNC(=N)N)C(=O)N[C@@H](Cc1c[nH]c2ccccc12)C(=O)N[C@@H](CCCCN)C(=O)N[C@H](C(=O)N[C@@H](Cc1ccccc1)C(=O)N[C@@H](CCCCN)C(=O)N[C@@H](CCCCN)C(=O)N[C@H](C(=O)N[C@@H](CCC(=O)O)C(=O)N[C@@H](CCCCN)C(=O)N[C@H](C(=O)NCC(=O)N[C@@H](CCC(N)=O)C(=O)N[C@@H](CC(N)=O)C(=O)N[C@H](C(=O)N[C@@H](CCCNC(=N)N)C(=O)N[C@@H](CC(=O)O)C(=O)NCC(=O)N[C@H](C(=O)N[C@H](C(=O)N[C@@H](CCCCN)C(=O)N[C@@H](C)C(=O)NCC(=O)N1CCC[C@H]1C(=O)N[C@@H](C)C(=O)N[C@H](C(=O)N[C@@H](C)C(=O)N[C@H](C(=O)N[C@H](C(=O)NCC(=O)N[C@@H](CCC(N)=O)C(=O)N[C@@H](C)C(=O)N[C@@H](C)C(=O)N[C@H](C(=O)N[C@H](C(N)=O)[C@@H](C)CC)[C@@H](C)O)C(C)C)C(C)C)C(C)C)C(C)C)[C@@H](C)CC)[C@@H](C)CC)C(C)C)[C@@H](C)CC)[C@@H](C)CC | Jurkat | DCFH-DA fluorescence | 3 and 6 µM, 12 h | baseline: PBS control | ROS level | increased
COc1cc2c3cc1Oc1cc(ccc1O)CC1c4c(cc(OC)c(O)c4Oc4ccc(cc4)CC3N(C)CC2)CCN1C (centres unmarked) | HEK293 |  |  | baseline: CC50 HEK293 over INDO IC50 | selectivity index | 204
CC=C(C)C(=O)OC1C2C3(C)CCC(OC4CC(OC)C(OC5OC(C)C(OC6OC(CO)C(O)C(O)C6O)C(OC)C5O)C(C)O4)CC3CCC23OC32CCC(C(C)=O)C2(C)C1OC(C)=O (centres unmarked) | MDA435/LCC6-MDR1 | cell growth, MDR reversal, SRB | 10 µM, with: paclitaxel | baseline: paclitaxel alone over combination | fold reversal of IC50 | 1
CCOP(=O)(OCC)OCCCCOC(=O)CC1=C(C)C(=Cc2ccc([S+](C)[O-])cc2)c2ccc(F)cc21 (centres unmarked) | A549 ρ0 (mitochondria-less) | trypan blue exclusion | 24 h | baseline: parental A549 cells | IC50 increase | 2 fold
Cc1cc(C)c(N2CCN(c3c(C)cc(C)cc3C)C2=[Se])c(C)c1.[Cl][Ag] | LoVo MDR | MTT |  | baseline: LoVo MDR over LoVo | resistance factor | 0.4
F[P-](F)(F)(F)(F)F.F[P-](F)(F)(F)(F)F.[Ru+2].c1ccc(-c2ccccn2)nc1.c1ccc(-c2ccccn2)nc1.c1csc(-c2ccc(-c3ccc(-c4cc5cccnc5c5ncccc45)s3)s2)c1 | SK-MEL-28 | cell viability, resazurin | 16 h drug-to-light interval, with: visible light 100 J/cm2 |  | EC50 | 125 ± 3 nM
